{"data": "Measurements pooled from the literature", "note": "Parts stem from different laboratories: compare values within a part only. Changes are numbered by the printed parent chain."}
{"data": "Set 1", "target": "Ras GTPase-activating protein-binding protein 1, full length (G3BP1, Homo sapiens, UniProt Q13283)", "technique": "RNA Bind-n-Seq", "form": "RNA", "sample": "in vitro", "tested at": "200 nM", "setting": "whole 134-nt RNA, ends assumed", "added": "150 mM LiCl", "reference": "input library", "direction": "higher = stronger binding", "each molecule": "7-deaza-guanosine replaces G", "shared flanks, not repeated": "GGGAGUUCUACAGUCCGACGAUC … UGGAAUUCUCGGGUGUCAAGG", "sequence of UniProt Q13283 (whole entry, looked up)": "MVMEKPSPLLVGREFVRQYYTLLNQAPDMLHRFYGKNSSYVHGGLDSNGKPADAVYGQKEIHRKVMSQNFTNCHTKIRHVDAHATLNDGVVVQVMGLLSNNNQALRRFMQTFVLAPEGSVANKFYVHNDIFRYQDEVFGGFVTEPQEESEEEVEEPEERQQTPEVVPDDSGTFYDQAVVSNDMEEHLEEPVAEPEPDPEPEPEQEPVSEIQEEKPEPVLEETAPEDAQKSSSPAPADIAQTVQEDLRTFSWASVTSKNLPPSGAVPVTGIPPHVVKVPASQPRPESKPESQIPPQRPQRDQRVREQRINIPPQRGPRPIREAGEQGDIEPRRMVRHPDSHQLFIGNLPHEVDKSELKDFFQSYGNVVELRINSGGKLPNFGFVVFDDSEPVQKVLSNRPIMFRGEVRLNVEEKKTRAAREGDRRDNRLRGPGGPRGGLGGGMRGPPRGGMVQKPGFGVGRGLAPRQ"}
{"Strand": "UUUCACUUCCAGCCAGCUGUGAAGAAGGUGAGCUUGCCUUCCAUCUUCCCCCCUAUCCGCCGCGUAUCUCCGUCGUCUGCAAGCGCGUGA", "log2 enrichment": 1.08}
{"Strand": "GUGCUACACAUCGUAUGUACCGAAUCGGGGAAAAAAAGGGGAAAAAAAGGGGUUUUUUUGGGGAAAGUAUUAUGUUACGCCGUUCGGAUC", "log2 enrichment": 0.05}
{"Strand": "GUCCUGUGCUACACAUCGUAUGUACCGAAUCGGGAAAAAGGAAAAAGGGAAAAAGGGGAAAGUAUUAUGUUACGCCGUUCGGAUCUGCAC", "log2 enrichment": -0.0598}
{"Strand": "CCUCAAGUCCUGUGCUACACAUCGUAUGUACCGAAUCGGUUGGUUGGGUUGGAAAGUAUUAUGUUACGCCGUUCGGAUCUGCACUUCCAG", "log2 enrichment": 0.73}
{"Strand": "CAAGUCCUGUGCUACACAUCGUAUGUACCGAAUCGGUUUUUGGAAAAAAAGGUGGAAAGUAUUAUGUUACGCCGUUCGGAUCUGCACUUC", "log2 enrichment": -1.28}
{"Strand": "UAACUUUAGAGGAGGAUCUGAUGGAUAUGGCAGUGGACGUGGAUUUGGUGAUGGCUAUAAUGGGUAUGGAGGAGGACCUGGAGGUGGCAA", "log2 enrichment": -0.0497}
{"Strand": "UGGGAGGUGGAUUUUGUUUAUUUUUUUAGCUCAUUUCCAGGGGUGGGAAUUUUUUUUUAAUAUGUGUCAUGAAUAAAGUUGUUGUUGAAA", "log2 enrichment": 0.111}
{"Strand": "CAAGUCCUGUGCUACACAUCGUAUGUACCGAAUCGGGAAAGGAAAGGGGAAAGGGGAAAGUAUUAUGUUACGCCGUUCGGAUCUGCACUU", "log2 enrichment": -0.165}
{"data": "Set 2", "target": "Hepatocyte nuclear factor 3-alpha (Foxa1, Mus musculus, UniProt P35582, residues 1-468, full length assumed)", "technique": "EMSA with sequencing", "form": "double-stranded DNA, one strand shown", "sample": "in vitro", "tested at": "10 and 20 nM", "setting": "whole designed probe, mean of two concentrations, ends assumed", "reference": "negative control set to 0", "direction": "higher = stronger binding", "shared flanks, not repeated": "GTGAGCGGTGCCCATTGATGGGGAAC … TTTCACTGGGATCGTGGGGAC", "sequence of UniProt P35582 (whole entry, looked up)": "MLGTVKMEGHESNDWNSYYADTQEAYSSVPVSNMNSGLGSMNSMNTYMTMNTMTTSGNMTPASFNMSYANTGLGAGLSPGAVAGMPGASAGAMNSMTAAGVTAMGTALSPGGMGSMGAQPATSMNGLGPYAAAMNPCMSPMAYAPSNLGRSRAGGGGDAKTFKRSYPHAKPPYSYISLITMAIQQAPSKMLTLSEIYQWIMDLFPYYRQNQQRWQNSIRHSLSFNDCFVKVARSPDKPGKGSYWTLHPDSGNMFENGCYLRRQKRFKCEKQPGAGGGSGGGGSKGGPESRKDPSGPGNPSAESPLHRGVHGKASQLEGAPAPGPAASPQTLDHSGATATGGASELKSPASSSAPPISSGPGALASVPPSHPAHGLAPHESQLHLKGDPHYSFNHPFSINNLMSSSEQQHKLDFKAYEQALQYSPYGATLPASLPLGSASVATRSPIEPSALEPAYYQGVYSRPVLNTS"}
{"Strand": "CAGTGCAGGTGACTAAGGATGACTAAGGACAGAGCAGGTGACTAAGGATGACTAAGGACTCTAAATATGTGAGTATAAAGGCTAGAAGGGGGTAGATTACTGAAACTAGGGCAAGGAGGTGTAAAGAATGAGGAAGTTAAACTTTAAAATGGAGAACAAAGTATAAGAAAGCTGAACATACTGACATACTGGT", "normalised bound fraction [ratio]": -0.0432}
{"Strand": "ATCTTCCCCCTCTTCCTTGCCCCACCAGCTCACCTACGGGGGTTATTTGCAGATAGGAAAATAAATAAAGCCGGCATTCGTTAACGCAGTTCTGGCGCAAACTGCTGTTTGCTCTGGATGAATCATGGTCCTTTGGCGACGCCAGGCTCCGGGAGAGCAAAGCACCGTGTCAGGGCCATGATCCGGGGTGGCC", "normalised bound fraction [ratio]": 0.35}
{"Strand": "AATCAGTTCAAAATAAAAAATATAAACCATTCAAGGAAACAAACTCTACATCATCCTAGGCCATCGTCAATTAGGGAAAGTCAGTAGGCAGAGTAATCTGGAAAATGTGTGCCTCACAATTTGAGATAATAGGACACTGAAAAATAAACTATAAAATTTGTGGCCGGGTGCAGTGGCTCACACCTGTAATCCC", "normalised bound fraction [ratio]": -0.00863}
{"Strand": "ATCTCCCCCTTCCCGTCTCCCTTACCAGCTCACCTTCCCGGGTTATTTGCAGATAGGAAAATAAATAAAGCCGGCATTCGTTAACCCTCTTCTGGCGCAAACTGCTGTTTGCTCTGGATGAATCATGGTCCTTTGGCGACGCCAGGCTCCGGGAGAGCAAAGCACCGTGTCAGGGCCATGATCCGGGGTGGCC", "normalised bound fraction [ratio]": 0.331}
{"Strand": "CCGTTAGCCATTTCTACAGTAAATGGTATCTGAAATTTTGTTATTTGAAAGAATTTTCTTGCCAAAACATGGAAATACGCAATATTTTGGCAAAATGACTTTGTATACGGGAACTTATTTTTTTAATTTTTTTATTTTTTTTGAGGCAGAGTCTCACTCTGTTGCCCAGGCTGGAGTGCAGTGGCACAGTGT", "normalised bound fraction [ratio]": 0.0538}
{"data": "Set 3", "target": "ABI1, truncated, D143A, DHFR fusion (Arabidopsis thaliana)", "technique": "DHFR PCA, deep sequencing", "sample": "yeast", "setting": "methotrexate growth selection, single substitutions", "added": "(+)-ABA 17 µM", "reference": "wild-type fitted maximum", "direction": "higher = stronger binding", "starting sequence": "PYL1, truncated, DHFR fusion (Arabidopsis thaliana); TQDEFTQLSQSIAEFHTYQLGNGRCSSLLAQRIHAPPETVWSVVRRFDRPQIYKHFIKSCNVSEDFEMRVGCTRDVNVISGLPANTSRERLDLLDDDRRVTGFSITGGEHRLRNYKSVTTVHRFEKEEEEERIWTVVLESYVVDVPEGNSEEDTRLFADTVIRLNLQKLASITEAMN; partner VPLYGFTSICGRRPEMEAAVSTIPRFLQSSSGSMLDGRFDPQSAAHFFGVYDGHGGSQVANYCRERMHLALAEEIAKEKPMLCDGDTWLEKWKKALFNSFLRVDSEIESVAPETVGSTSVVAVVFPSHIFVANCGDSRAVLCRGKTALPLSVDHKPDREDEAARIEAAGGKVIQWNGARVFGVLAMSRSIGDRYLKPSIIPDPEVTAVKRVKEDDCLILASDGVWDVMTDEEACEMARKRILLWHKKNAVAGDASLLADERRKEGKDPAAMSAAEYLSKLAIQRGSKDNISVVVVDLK"}
{"Substitution": "I12F", "relative binding score [%]": 21.6}
{"Substitution": "D153R", "relative binding score [%]": -1.79}
{"Substitution": "Y18M", "relative binding score [%]": 53.4}
{"Substitution": "V145W", "relative binding score [%]": -2.26}
{"Substitution": "P83Q", "relative binding score [%]": 22}
{"Substitution": "L112S", "relative binding score [%]": 1.95}
{"Substitution": "N85Q", "relative binding score [%]": 83.7}
{"Substitution": "G148P", "relative binding score [%]": 29.4}
{"Substitution": "L166W", "relative binding score [%]": -1.44}
{"Substitution": "R90A", "relative binding score [%]": 26.7}
{"Substitution": "E130A", "relative binding score [%]": 85.7}
{"Substitution": "E109V", "relative binding score [%]": 66}
{"Substitution": "E152R", "relative binding score [%]": 66.3}
{"Substitution": "I57A", "relative binding score [%]": 12.9}
{"Substitution": "T86V", "relative binding score [%]": 63.3}
{"Substitution": "G107M", "relative binding score [%]": 2.65}
{"Substitution": "S9A", "relative binding score [%]": 85.5}
{"Substitution": "Y18L", "relative binding score [%]": 45.6}
{"Substitution": "N165G", "relative binding score [%]": -1.5}
{"Substitution": "D92N", "relative binding score [%]": 42}
{"Substitution": "A30T", "relative binding score [%]": 85.5}
{"Substitution": "Q7H", "relative binding score [%]": 80.2}
{"Substitution": "L29S", "relative binding score [%]": 30.4}
{"Substitution": "E130F", "relative binding score [%]": 76.1}
{"Substitution": "H55A", "relative binding score [%]": 97.3}
{"data": "Set 4", "target": "PABPC1L2, full length, GST fusion (mouse, UniProt A0ABA7IW68)", "technique": "RNAcompete", "form": "RNA", "sample": "in vitro", "tested at": "20 nM", "setting": "7-mer, probes averaged, single round", "reference": "mean of 7-mers", "direction": "higher = stronger binding", "Construct (chain)": "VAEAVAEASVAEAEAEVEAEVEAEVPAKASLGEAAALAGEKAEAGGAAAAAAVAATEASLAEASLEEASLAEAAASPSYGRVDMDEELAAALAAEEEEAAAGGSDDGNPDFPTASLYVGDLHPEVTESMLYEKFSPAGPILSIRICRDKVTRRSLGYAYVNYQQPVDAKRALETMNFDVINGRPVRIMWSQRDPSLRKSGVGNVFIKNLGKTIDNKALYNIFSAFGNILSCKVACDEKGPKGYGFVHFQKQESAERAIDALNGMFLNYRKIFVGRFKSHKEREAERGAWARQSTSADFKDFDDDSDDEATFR"}
{"Strand": "GACUGCA", "7-mer Z-score": -0.0283}
{"Strand": "AGUCCGA", "7-mer Z-score": -0.0699}
{"Strand": "GCUGACG", "7-mer Z-score": -0.079}
{"Strand": "AGGCCUG", "7-mer Z-score": -0.0319}
{"Strand": "CAACUGG", "7-mer Z-score": -0.146}
{"Strand": "UACGCUG", "7-mer Z-score": -0.38}
{"Strand": "ACUCAGG", "7-mer Z-score": -0.0428}
{"Strand": "CUUUUCC", "7-mer Z-score": -0.387}
{"Strand": "GGGACAA", "7-mer Z-score": 0.722}
{"Strand": "CCCAAUG", "7-mer Z-score": -0.336}
{"Strand": "CCCUAUU", "7-mer Z-score": -0.275}
{"Strand": "GGCCUUA", "7-mer Z-score": -0.206}
{"Strand": "GUUUAGU", "7-mer Z-score": -0.441}
{"Strand": "UCUCCAA", "7-mer Z-score": -0.112}
{"Strand": "CUCGGUC", "7-mer Z-score": -0.358}
{"Strand": "CUGGAAG", "7-mer Z-score": 0.191}
{"data": "Other studies, line by line"}
{"Molecule": "PhoQ, residues 284 288 289 292 302 303 GANMMA", "target": "PhoP, residues 12 14 15 18 19 LHHSG (Escherichia coli, UniProt P23836)", "assay": "Sort-seq, measured: YFP reporter", "system": "E. coli", "conditions": "PhoQ-PhoP variant library, added: 10 µM Mg2+", "how to read": "reference: high Mg2+ state, higher = stronger signaling", "quantity": "fold induction", "result": 5.75}
{"note": "A few entries again (set 2):"}
{"Strand": "CAGTGCAGGTGACTAAGGATGACTAAGGACAGAGCAGGTGACTAAGGATGACTAAGGACTCTAAATATGTGAGTATAAAGGCTAGAAGGGGGTAGATTACTGAAACTAGGGCAAGGAGGTGTAAAGAATGAGGAAGTTAAACTTTAAAATGGAGAACAAAGTATAAGAAAGCTGAACATACTGACATACTGGT", "normalised bound fraction [ratio]": -0.0432}
{"Strand": "ATCTTCCCCCTCTTCCTTGCCCCACCAGCTCACCTACGGGGGTTATTTGCAGATAGGAAAATAAATAAAGCCGGCATTCGTTAACGCAGTTCTGGCGCAAACTGCTGTTTGCTCTGGATGAATCATGGTCCTTTGGCGACGCCAGGCTCCGGGAGAGCAAAGCACCGTGTCAGGGCCATGATCCGGGGTGGCC", "normalised bound fraction [ratio]": 0.35}
{"Strand": "CCGTTAGCCATTTCTACAGTAAATGGTATCTGAAATTTTGTTATTTGAAAGAATTTTCTTGCCAAAACATGGAAATACGCAATATTTTGGCAAAATGACTTTGTATACGGGAACTTATTTTTTTAATTTTTTTATTTTTTTTGAGGCAGAGTCTCACTCTGTTGCCCAGGCTGGAGTGCAGTGGCACAGTGT", "normalised bound fraction [ratio]": 0.0538}
{"Strand": "ATCTCCCCCTTCCCGTCTCCCTTACCAGCTCACCTTCCCGGGTTATTTGCAGATAGGAAAATAAATAAAGCCGGCATTCGTTAACCCTCTTCTGGCGCAAACTGCTGTTTGCTCTGGATGAATCATGGTCCTTTGGCGACGCCAGGCTCCGGGAGAGCAAAGCACCGTGTCAGGGCCATGATCCGGGGTGGCC", "normalised bound fraction [ratio]": 0.331}
{"Strand": "AATCAGTTCAAAATAAAAAATATAAACCATTCAAGGAAACAAACTCTACATCATCCTAGGCCATCGTCAATTAGGGAAAGTCAGTAGGCAGAGTAATCTGGAAAATGTGTGCCTCACAATTTGAGATAATAGGACACTGAAAAATAAACTATAAAATTTGTGGCCGGGTGCAGTGGCTCACACCTGTAATCCC", "normalised bound fraction [ratio]": -0.00863}
